Assay results collected from several papers.
Each numbered part is a random draw from the data of one study; scales do not carry over between parts. Changes are numbered by the printed parent chain.

Study 1
Target: Histone acetyltransferase KAT6A, winged helix 2, GST fusion (KAT6A, Homo sapiens, UniProt Q92794, residues 85-181)
Technique: protein binding microarray
Molecule type: double-stranded DNA, one strand shown
Medium: in vitro
Tested at: not given
Setting: 8-mer, flanks averaged, mean of 2 arrays, mostly near background
Reference: not given
Reading: higher = stronger binding
Residues (chain): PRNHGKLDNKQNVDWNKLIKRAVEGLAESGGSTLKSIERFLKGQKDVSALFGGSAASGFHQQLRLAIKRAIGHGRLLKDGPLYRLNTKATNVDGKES
The E-score of `ACGCAGAC` is reported as 0.118.
For `CACCTGGA`, the E-score was -0.00025.
The E-score of `ATCGACAC` is reported as -0.128.
For `TATGAGAA`, the E-score was -0.024.
With `GGAATGCC` the E-score was -0.0569.
For `GTTTGTGA`, the E-score was 0.137.
`ATGTAGAG` has an E-score of -0.0361.
For `ATGAAAGC`, the E-score was 0.06.
`TGCTCCCA` has an E-score of 0.0957.
With `ACCCGCTG` the E-score was 0.112.
`CCTTAGCA` has an E-score of 0.0908.
`ACACTATG` has an E-score of -0.101.
With `CTCTTATA` the E-score was 0.0255.
`GCGGGCCC` gave an E-score of 0.0935.
For `AATAGGCA`, the E-score was 0.0672.
For `AATACACA`, the E-score was -0.0363.
The E-score of `CAGAGGGC` is reported as 0.14.
For `ATCCCTCA`, the E-score was 0.111.
For `CAACATAC`, the E-score was -0.00857.
For `AGCGGTAA`, the E-score was -0.0733.
For `CTCAAAGA`, the E-score was -0.0698.
For `ATTGGACA`, the E-score was 0.106.
The E-score of `ACGTGACC` is reported as -0.308.

Study 2
Target: CCNB1, cyclin fold, Cln2 fusion (human)
Technique: yeast growth competition, sequencing
Medium: yeast
Setting: strong parent motif
Reference: not given
Reading: higher = stronger binding
Parent: PKMYT1 docking peptide (human); SFEPRNLLSLFED
`D13L`: “normalised enrichment score” 1.19.
Under “normalised enrichment score”, `R5Y` is recorded as 0.245.
Under “normalised enrichment score”, `E12A` is recorded as 0.228.
`L7D`: “normalised enrichment score” -0.46.
`E3I` — result for “normalised enrichment score”: 1.54.
Under “normalised enrichment score”, `L8A` is recorded as 1.15.
`E3Q`: “normalised enrichment score” 2.06.
`L7M`: “normalised enrichment score” 0.19.
For `E12T`, “normalised enrichment score” read 0.326.
`D13C` — result for “normalised enrichment score”: 0.98.
`L10W`: “normalised enrichment score” 1.02.
Under “normalised enrichment score”, `F2I` is recorded as -0.617.
Under “normalised enrichment score”, `R5N` is recorded as 0.0674.
Under “normalised enrichment score”, `D13G` is recorded as 0.712.
For `P4E`, “normalised enrichment score” read -0.239.
`F2M` — result for “normalised enrichment score”: -0.0916.
`F11V` — result for “normalised enrichment score”: 0.46.

Study 3
Target: Ras GTPase-activating protein-binding protein 1, C-terminal RGG region (G3BP1, Homo sapiens, UniProt Q13283)
Chain of UniProt Q13283 (whole entry, looked up): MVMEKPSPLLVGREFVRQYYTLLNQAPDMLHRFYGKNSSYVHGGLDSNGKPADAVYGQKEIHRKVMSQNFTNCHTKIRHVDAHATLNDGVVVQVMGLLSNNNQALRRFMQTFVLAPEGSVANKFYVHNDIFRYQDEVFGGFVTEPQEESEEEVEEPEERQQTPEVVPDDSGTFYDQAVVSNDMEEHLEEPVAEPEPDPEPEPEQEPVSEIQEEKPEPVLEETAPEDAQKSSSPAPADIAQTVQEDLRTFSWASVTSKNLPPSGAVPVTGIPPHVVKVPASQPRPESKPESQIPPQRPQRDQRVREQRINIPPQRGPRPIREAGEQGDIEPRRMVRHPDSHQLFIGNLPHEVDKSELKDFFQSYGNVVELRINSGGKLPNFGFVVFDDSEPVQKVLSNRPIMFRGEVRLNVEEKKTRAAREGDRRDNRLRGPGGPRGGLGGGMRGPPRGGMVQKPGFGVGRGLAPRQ
Technique: RNA Bind-n-Seq
Molecule type: RNA
Medium: in vitro
Tested at: 1 µM
Setting: whole 134-nt RNA, ends assumed
With: 150 mM KCl
Reference: input library
Reading: higher = stronger binding
The log2 enrichment of `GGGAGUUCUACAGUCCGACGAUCUUUGGCAAUGAGAUCUAAACCAGACAAAGACCUCCUUAUGGAAGAAGAUGACAUGGCCUUGGCAAAUGUAGUCAUGCAGGAAGCUCAGAAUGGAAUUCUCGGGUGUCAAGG` is reported as -1.55.
With `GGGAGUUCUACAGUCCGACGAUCGCAGGAAGUAAAAACAAAUGGAAAUGCUUCGGGUAGUGGCAGGGGUGGGGGUUGCUAAGGAAAGGGUGGGAUGGGAGUGGGUAAAGAGUUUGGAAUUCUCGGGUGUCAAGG` the log2 enrichment was 1.48.
The log2 enrichment of `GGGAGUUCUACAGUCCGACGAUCAAGUCCUGUGCUACACAUCGUAUGUACCGAAUCGGCCCCCGGCCCCCGGCCCCCGGGAAAGUAUUAUGUUACGCCGUUCGGAUCUGCACUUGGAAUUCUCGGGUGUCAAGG` is reported as -1.77.
`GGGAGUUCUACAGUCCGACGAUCUAACUUUAGAGGAGGACCUGAUGGAUAUGGCAGUGGACGUGGAUUUGGGGAUGGCUAUAAUGGGUAUGGAGGAGGACCUGGAGGUGGCAAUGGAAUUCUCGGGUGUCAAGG` gave a log2 enrichment of -0.932.
`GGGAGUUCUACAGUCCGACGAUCUCCUGUGCUACACAUCGUAUGUACCGAAUCGGGGAAAAAGGGGAAAAAGGGGAAAAAGGGAAAGUAUUAUGUUACGCCGUUCGGAUCUGCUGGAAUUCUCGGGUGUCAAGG` has a log2 enrichment of -0.35.
`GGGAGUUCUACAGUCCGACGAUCCCUCAAGUCCUGUGCUACACAUCGUAUGUACCGAAUCGGGUGGGUGGGGUGGGAAAGUAUUAUGUUACGCCGUUCGGAUCUGCACUUCCAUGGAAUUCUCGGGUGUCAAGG` gave a log2 enrichment of 2.02.
`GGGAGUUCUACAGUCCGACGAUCCACAGACAACACGCACCCACACAGACACAGAGGGAAGGGGUUGGGAUGGGGACAGGGUGCACAGCAGGGCGGGGUAGGACCCCAGAAACUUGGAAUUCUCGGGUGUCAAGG` has a log2 enrichment of -0.332.
The log2 enrichment of `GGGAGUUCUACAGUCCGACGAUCGUCCUGUGCUACACAUCGUAUGUACCGAAUCGGGUUUGGGAAAAAGGGUUUUUUUGGGAAAGUAUUAUGUUACGCCGUUCGGAUCUGCACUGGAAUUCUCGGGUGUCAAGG` is reported as 0.625.
The log2 enrichment of `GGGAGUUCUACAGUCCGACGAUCUCAAGUCCUGUGCUACACAUCGUAUGUACCGAAUCGGGUUUGGUUUGGGUUUGGGAAAGUAUUAUGUUACGCCGUUCGGAUCUGCACUUCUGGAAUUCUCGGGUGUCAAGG` is reported as -1.31.
`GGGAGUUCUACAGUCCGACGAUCGUCCUGUGCUACACAUCGUAUGUACCGAAUCGGGGAAAAAAGGAAAAAAGGAAAAAAGGAAAGUAUUAUGUUACGCCGUUCGGAUCUGCAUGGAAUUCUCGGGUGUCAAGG` gave a log2 enrichment of -1.57.

Study 4
Target: RNA binding protein fox-1 homolog 2, RRM domain, GST-SBP tag (RBFOX2, Homo sapiens, UniProt O43251-10, residues 100-194)
Technique: RNA Bind-n-Seq
Molecule type: RNA
Medium: in vitro
Tested at: 365 nM
Setting: natural RNA segment, single round, ends assumed
Reference: no-protein control
Reading: higher = stronger binding
Construct (chain): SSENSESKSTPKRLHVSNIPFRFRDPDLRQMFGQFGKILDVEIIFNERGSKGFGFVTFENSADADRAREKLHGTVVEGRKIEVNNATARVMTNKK
`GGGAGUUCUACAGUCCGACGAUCAAUUCUACUAUGGAUGGAUGUUGUGAGCCCUUGCUUGGAAGCCUUCACCGUCUAGCUUCCCCAGGGUAGGAAAGGUCUCCCACAUUAUGCAAUAAUAAAAUCAGCAUCUGUGGAAUUCUCGGGUGCCAA`: “RBNS enrichment (R)” 0.505.
Under “RBNS enrichment (R)”, `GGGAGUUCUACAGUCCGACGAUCUCCCUCCAGCAAGCCUCACUGCACCUCUCCCCUGCUGUUUGUGUUUGGAAUUUUGUCUUCUUUAGCUGAGACCAAAUUAAACCUUGGUGCAUAAAGUGAGCUUAAAACUUUGGAAUUCUCGGGUGCCAA` is recorded as 0.32.
`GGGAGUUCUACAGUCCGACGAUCAGUGCUCCUGCUUUCAGUCCCCUCUGCCUUCCAGUGAUCUCUUUCCUACAAGCUGCUUCGAGGUCCAGGGGCCUCUGCUUCUUAAACACUAUGUCCCAGUCUUCUCAUGUUGGAAUUCUCGGGUGCCAA` — result for “RBNS enrichment (R)”: 0.345.
`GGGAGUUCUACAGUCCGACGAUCUCCGGAUCACUGUGGUUGGGUGGAGGUCUGUCUGCACUGGGAGCCUCAGGAGGGCUCUGCUCCACCCACUUGGCUAUGGGAGAGCCAGCAGGGGUUCUGGAGAAAGAAACUGGAAUUCUCGGGUGCCAA`: “RBNS enrichment (R)” 0.798.
`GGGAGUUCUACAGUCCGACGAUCGAAACAUUCUGUCCACAAAGACUAUUUUAAGGCAUAUUCAACUGGUAUUUCAUUUAUUCUUAUGGACAAAGCAAUGCAGCAUCAGGAGAUCAUUGGUGACAUUCUUCAGUUGGAAUUCUCGGGUGCCAA` — result for “RBNS enrichment (R)”: 0.643.
Under “RBNS enrichment (R)”, `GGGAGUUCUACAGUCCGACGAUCAGAGUCAAUCAAAUCCUUGUGAUGUUUUGUAUGGACUUUGACAAUAUGUAAAUAAUGUGUAAAGCCAGUUUUUAUGAUUAAGGAAUCAAAUUUAUUGAAUUUUAUUAUUGUGGAAUUCUCGGGUGCCAA` is recorded as 0.427.
`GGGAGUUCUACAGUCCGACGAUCAAAACAGAGAUAAACAUUAGAUGUCUAAAGGAGUUAGUAAUGAAAAGCCUAUCCUUAAAAAAUAAACCUGUUGAAAUGGGCUUUAAAGACAUCGAAAUAAUCACUUGUCAUGGAAUUCUCGGGUGCCAA` — result for “RBNS enrichment (R)”: 0.542.
`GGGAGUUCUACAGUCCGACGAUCAACUGGGCAAUAUGGGUAAAAUUUCCUUUUUUCCCUAAGAAUGAGGUCUUCCAUGUUUGAGGAAAUGUCUUGCACUAUUGCAUAUAUUUUGUGGACACAGAUUUUUGUAGUGGAAUUCUCGGGUGCCAA`: “RBNS enrichment (R)” 1.65.
`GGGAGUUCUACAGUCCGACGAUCGAAUCCUCCCCUUUCUGGCACAAGACAGAAAGCAAGCAGCUGAGUAACUGGAGACCAGUGGAAAUGAGUAUCAUAGAUGGUCAGGCUGCAGAUGGAUCCCAGAACCUGCAUGGAAUUCUCGGGUGCCAA`: “RBNS enrichment (R)” 3.88.
`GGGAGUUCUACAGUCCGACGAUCCCCAGUAUAGACUGAGUGUCCACUUCAGCAAAGGUGUUUUCAUCCCAGCCUUGGUUUGGAGCUUGCAGACGUAACUGAAUAUAAUUUCCUCCAUUUGCAGCAUGGUUCCCUGGAAUUCUCGGGUGCCAA` — result for “RBNS enrichment (R)”: 0.756.
Under “RBNS enrichment (R)”, `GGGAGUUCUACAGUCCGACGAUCGGUUCUGCUGCCUCUACACAGGGGCCCUGUACAGUGAAUGGUGCCAUUUUCGAAGGAGCAGUGUGACCUCCUGUGACCCGUGAAUGUGCCUCCAAGCGGCCCUGUGUGUUUGGAAUUCUCGGGUGCCAA` is recorded as 0.551.
`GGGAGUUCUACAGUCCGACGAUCGCCAUAUUCAUGCAGGUGCUAACCGCCUUUUCUACUGGUGCAACUGAAAGGAAUAUGGUAACAUGGUUGGAUUUUUAAAAUUCACAAUGAAGGAACGAGACAAGCAAAACUGGAAUUCUCGGGUGCCAA` — result for “RBNS enrichment (R)”: 0.383.

Mixed results
The fold induction of `PhoQ, residues 284 288 289 292 302 303 SSCCRF` is reported as 23.6 (PhoP, residues 12 14 15 18 19 NMSSL (Escherichia coli, UniProt P23836); Sort-seq, refers to: YFP reporter; E. coli; PhoQ-PhoP variant library, with: 10 µM Mg2+; reference: high Mg2+ state, higher = stronger signaling).

Some of these lines once more (study 2):
Under “normalised enrichment score”, `E12A` is recorded as 0.228.
`L7D`: “normalised enrichment score” -0.46.
`E3I` — result for “normalised enrichment score”: 1.54.
Under “normalised enrichment score”, `L8A` is recorded as 1.15.
`E3Q`: “normalised enrichment score” 2.06.
`L7M`: “normalised enrichment score” 0.19.
For `E12T`, “normalised enrichment score” read 0.326.
`D13C` — result for “normalised enrichment score”: 0.98.
`L10W`: “normalised enrichment score” 1.02.
Under “normalised enrichment score”, `F2I` is recorded as -0.617.
